Results from different studies.
Protocols differ between the studies behind these lines. Numbers after ± are the reported error.

SMILES | cell line | assay | setting | scale | endpoint | result
COc1ccc(/C=C/C(=O)CC(=O)/C=C/c2ccc(OC)c(OC)c2)cc1OC | LN-229 | Western blot, measured: p-mTOR, p-CDC2, BCL-2 | concentration not given, 24 h | – | protein level | decreased
CC[C@H](C)[C@H](NC(=O)[C@H](Cc1ccccc1)NC(=O)[C@H](CCC(=O)O)NC(=O)[C@H](CCCCN)NC(=O)[C@H](C)NC(=O)[C@H](C)NC(=O)[C@H](CC(N)=O)NC(=O)CNC(=O)[C@H](CCC(=O)O)NC(=O)[C@H](CC(C)C)NC(=O)[C@H](Cc1ccc(O)cc1)NC(=O)[C@H](CO)NC(=O)[C@H](CO)NC(=O)[C@@H](NC(=O)[C@H](CC(=O)O)NC(=O)[C@H](CO)NC(=O)[C@@H](NC(=O)[C@H](Cc1ccccc1)NC(=O)[C@@H](NC(=O)CNC(=O)[C@H](CCC(=O)O)NC(=O)[C@H](C)NC(=O)[C@@H](N)Cc1c[nH]cn1)[C@@H](C)O)[C@@H](C)O)C(C)C)C(=O)N[C@@H](CCC(N)=O)C(=O)N[C@@H](Cc1c[nH]c2ccccc12)C(=O)N[C@@H](CC(C)C)C(=O)N[C@H](C(=O)N[C@@H](CCCCN)C(=O)NCC(=O)N[C@@H](CCCNC(=N)N)C(N)=O)C(C)C | RIN-m5F rat β-cells | insulin secretion | – | baseline: EC50 of analogue over EC50 of GLP-1(7-36)-amide | relative potency | 0.42
C[C@H]1O[C@@H]2C3=C(O[C@]2(C)[C@@]1(O)C=O)C(=O)c1c(O)cccc1C3=O | HeLa and HFF | MTT | – | baseline: CC50 HFF over EC50 HeLa | selectivity index | 1.04
C#CCCCN(CCNc1ccnc2cc(Cl)ccc12)C(=O)CCC(=O)O[C@@H]1O[C@@H]2O[C@@]3(C)CC[C@H]4[C@H](C)CCC([C@H]1C)[C@@]24OO3 (some centres unmarked) | MOLT-4 | cell growth or viability, resazurin | 10 µM, 48 h | – | inhibition | 21.8%
Fc1cc2nc3c4cccnc4c4ncccc4c3nc2cc1F.[Cl-].[Cl-].[Ru+2].c1ccncc1.c1ccncc1.c1ccncc1.c1ccncc1 | L-O2 | – | 5 µM, 24 h, with irradiation | – | viability | 70%
CC12CCC3(CCC(=O)NCCCNc4ccnc5cc(Cl)ccc45)C(C)(OOC3(C)O1)O2 | MOLT-4 | cell growth or viability, resazurin | 10 µM, 48 h | – | inhibition | 16.3%
[Cl-].[Cl][Ru-4]123([n+]4ccccc4-c4cccc([n+]41)-c1cccc[n+]12)[n+]1ccc(-c2ccccc2)c2ccc4c(-c5ccccc5)cc[n+]3c4c21 | HEL 299 and A549 | resazurin | – | baseline: IC50 HEL 299 over A549 | selectivity index | 4.9
CNC(=O)c1cc(Oc2ccc(NC(=O)c3cc(-c4cccc(COC(=O)CCC(=O)OC5OC6OC7(C)CCC8C(C)CCC(C5C)C68OO7)c4)ccn3)cc2)ccn1 (centres unmarked) | Huh-7 and LO2 | cell viability, MTT | 72 h | baseline: IC50 LO2 over IC50 Huh-7 | selectivity ratio | 5.9
CCCC[C@H](O)C[C@@H](C)C[C@H](NC(=O)[C@@H]1C[C@H](C)CN1C(=O)/C=C/[C@@H](C)CC)C(=O)N[C@H](C(=O)NC(C)(C)C(=O)N[C@@H](CC(C)C)C(=O)N[C@@H](CC(C)C)C(=O)NC(C)(C)C(=O)NC(C)(C)C(=O)NCCC(=O)N[C@@H](C)CNC)[C@H](O)C(C)C | MDA-MB-453 | cell growth or viability, SRB | 48 h | – | GI50 | 0.0033 µM
Cc1cc(O)cc(-c2nc(Nc3cc(C(F)(F)F)cc(C(F)(F)F)c3)ncc2-c2ccnc(Cl)c2)c1 | HT-29 | DNA flow cytometry | 10 µM, 48 h | – | cells in G0/G1 phase | 59.7 ± 0.73%
CCCCCCCCCCCCCC(=O)NCC(=O)N[C@@H](CCCNC(=N)N)C(=O)N[C@@H](Cc1c[nH]c2ccccc12)C(=O)N[C@@H](CCCCN)C(=O)N[C@H](C(=O)N[C@@H](Cc1ccccc1)C(=O)N[C@@H](CCCCN)C(=O)N[C@@H](CCCCN)C(=O)N[C@H](C(=O)N[C@@H](CCC(=O)O)C(=O)N[C@@H](CCCCN)C(=O)N[C@H](C(=O)NCC(=O)N[C@@H](CCC(N)=O)C(=O)N[C@@H](CC(N)=O)C(=O)N[C@H](C(=O)N[C@@H](CCCNC(=N)N)C(=O)N[C@@H](CC(=O)O)C(=O)NCC(=O)N[C@H](C(=O)N[C@H](C(=O)N[C@@H](CCCCN)C(=O)N[C@@H](C)C(=O)NCC(=O)N1CCC[C@H]1C(=O)N[C@@H](C)C(=O)N[C@H](C(=O)N[C@@H](C)C(=O)N[C@H](C(=O)N[C@H](C(=O)NCC(=O)N[C@@H](CCC(N)=O)C(=O)N[C@@H](C)C(=O)N[C@@H](C)C(=O)N[C@H](C(=O)N[C@H](C(N)=O)[C@@H](C)CC)[C@@H](C)O)C(C)C)C(C)C)C(C)C)C(C)C)[C@@H](C)CC)[C@@H](C)CC)C(C)C)[C@@H](C)CC)[C@@H](C)CC | K562/MDR | western blot | concentration not given, 16 h | – | Bax/Bcl-2 ratio | increased
CC12CCC3(CCC(=O)OCCNc4ccnc5cc(Cl)ccc45)C(C)(OOC3(C)O1)O2 | RPMI-8226 | cell growth or viability, resazurin | 10 µM, 48 h | – | inhibition | 31.9%
CC(C)CC(O)(CC(C)C)c1cn(C(=O)N2CCCC2)nn1 | mouse T-cells | N-terminal labeled proteins, N-terminal enrichment proteomics, measured: EFHD2 | 1 nM, 6 h | baseline: DMSO | SILAC ratio | 2.18 ± 0.12
CCN(CC)CCOc1ccc(-c2nnn(Cc3ccc(OC)cc3)c2N)cc1 | HEI-193 | RT-qPCR, measured: NDUFB8, NDUFA4, S100A10, EPHX1 | concentration not given | – | mRNA level | increased
CC1CCC2C(C)C(OC(=O)CCC(=O)N(CCCc3cn(-c4ccc([N+](=O)[O-])cc4)nn3)CCNc3ccnc4cc(Cl)ccc34)OC3OC4(C)CCC1C32OO4 (centres unmarked) | RPMI-8226 | cell growth or viability, resazurin | 10 µM, 48 h | – | inhibition | 42.7%
CC1=CCC23OC2(C)CCC2C(C[N+](C)(C)C)C(=O)OC2C13.[I-] (centres unmarked) | RPMI-8226 | cell growth or viability, SRB | 8.3 µM | – | inhibition | 91.5%

SMILES | cell line | assay | setting | scale | endpoint | result
NC1CCCCC1N.O=C1[O][Pt]([O]C(=O)c2ccc(P(c3ccccc3)c3ccccc3)cc2)([O]C(=O)c2ccc(P(c3ccccc3)c3ccccc3)cc2)[O]C1=O.[Cl][Au].[Cl][Au] | HUVEC | tube formation | IC10, 16 h | – | tube node disruption | 34%
CC(=O)Oc1ccccc1/C=C/C(=O)Nc1nc(=O)n([C@@H]2O[C@H](C)[C@@H](OC(C)=O)[C@H]2OC(C)=O)cc1F | BXPC-3 | cell viability, MTT | – | baseline: NHDF fibroblasts over BXPC-3 | selectivity index | 3.66
C=CC(=O)Nc1cc(-c2nn(C3CCC(N4CCN(C(C)=O)CC4)CC3)c3ncnc(N)c23)ccc1Oc1ccccc1 (centres unmarked) | PC9/GR4 | cell growth or viability, ATP luminescence | 72 h | – | EC50 | ≥ 10 µM
CNC(=O)c1cc(Oc2ccc(NC(=O)c3cc(-c4ccccc4OC(=O)CCC(=O)OC4OC5OC6(C)CCC7C(C)CCC(C4C)C57OO6)ccn3)cc2)ccn1 (centres unmarked) | Huh-7 and LO2 | cell viability, MTT | 72 h | baseline: IC50 LO2 over IC50 Huh-7 | selectivity ratio | 9.8
CN1C(=O)CN=C(c2ccccc2)c2cc(C#CCCCC(=O)NO)ccc21 | NB4 | annexin V/PI flow cytometry | 2.5 µM, 48 h | – | apoptotic cells | ~80%
Cc1cc(CS(=O)(=O)c2ccccc2)cc(OCc2ccc(CN3CCC[C@@H]3CO)cc2)c1 | U2OS | measured: lysosomal labelling | 30 µM | – | LysoTracker Red signal | 95.3 ± 3%
CSCC[C@@H](NC(=O)[C@@H](CC(C)C)NC(=O)CNC(=O)[C@@H](Cc1ccccc1)NC(=O)[C@@H](Cc1ccccc1)NC(=O)[C@@H](CCC(N)=O)NC(=O)[C@@H](CCC(N)=O)NC(=O)[C@H]1CCCN1C(=O)[C@@H](CCCCN)NC(=O)[C@H]1CCCN1C(=O)[C@H](N)CCCNC(=N)N)C(N)=O | rat mast cells | whole-cell patch-clamp capacitance | 25 to 200 µM, intracellular, 400 µM EGTA | – | onset delay of degranulation | 440 ± 100 s
CC[C@H](C)[C@H](NC(C)=O)C(=O)N[C@@H](CC(N)=O)C(=O)N[C@@H](Cc1c[nH]c2ccccc12)C(=O)N[C@@H](CCC(=O)O)C(=O)NCC(=O)N[C@H](C(=O)N[C@@H](C)C(=O)N[C@@H](Cc1c[nH]cn1)C(=O)N[C@@H](CCSC)C(=O)N[C@@H](C)C(=O)N[C@@H](CCCCN)C(=O)N[C@@H](CCCCN)C(=O)N[C@@H](CC(C)C)C(=O)N[C@@H](CC(C)C)C(N)=O)[C@@H](C)CC | human erythrocytes | hemolysis | no metal added | – | Hill coefficient | 2.2 ± 0.6
Cc1cc2c(C(=O)Cc3ccccc3)c(O)c(O)cc2c(O)c1-c1c(C)cc2c(C(=O)Cc3ccccc3)c(O)c(O)cc2c1O | RS11846 | ATP-lite viability | 72 h | – | EC50 | 2.6 µM
COCCOCCOCCOc1ccc(-n2cc(CCCN(CCNc3ccnc4cc(Cl)ccc34)C(=O)CCC(=O)OC3OC4OC5(C)CCC6C(C)CCC(C3C)C46OO5)nn2)cc1 (centres unmarked) | RPMI-8226 | cell growth or viability, resazurin | 10 µM, 48 h | – | inhibition | 23.9%
CC(=O)N[C@@H](CCCNC(=N)N)C(=O)N[C@@H](CCCNC(=N)N)C(=O)N[C@@H](CCCNC(=N)N)C(=O)N[C@@H](CCCNC(=N)N)C(=O)N[C@@H](CCCNC(=N)N)C(=O)N[C@@H](CCCNC(=N)N)C(=O)N[C@@H](CCCNC(=N)N)C(=O)N[C@@H](CCCNC(=N)N)C(=O)N[C@@H](CCCNC(=N)N)C(=O)N[C@@H](CCCNC(=N)N)C(=O)NCC(=O)N[C@@H](COP(=O)(O)O)C(=O)N1CCC[C@H]1C(=O)N[C@H](C(=O)N[C@@H](Cc1ccccc1)C(=O)O)[C@@H](C)O | HeLa | DNA damage, immunostaining | 10 µM, 30 min, added: ionizing radiation 20 Gy | – | γH2AX-positive cells | 85.5 ± 3.65%
CC/C=C\C/C=C\C/C=C\C/C=C\C/C=C\C/C=C\CCC(=O)Nc1ccn(C2OC(CO)C(O)C2(F)F)c(=O)n1 (centres unmarked) | SF-539 | NCI60 screen | – | – | CC50 | 30.6 µM
N=C(N)NCCC[C@H](N)C(=O)N1CCC[C@H]1C(=O)N[C@@H](CCCCN)C(=O)N1CCC[C@H]1C(=O)N[C@@H](CCC(N)=O)C(=O)N[C@@H](CCC(N)=O)C(=O)N[C@@H](Cc1ccccc1)C(=O)N[C@@H](Cc1ccccc1)C(=O)NCC(N)=O | LAD2 human mast cells | degranulation, activator, measured: β-hexosaminidase | 30 min, 37 °C | – | EC50 | 18.5 µM
CC[C@H](C)[C@H](NC(C)=O)C(=O)N[C@@H](CC(N)=O)C(=O)N[C@@H](Cc1c[nH]c2ccccc12)C(=O)N[C@@H](Cc1c[nH]cn1)C(=O)NCC(=O)N[C@H](C(=O)N[C@@H](C)C(=O)N[C@@H](Cc1c[nH]cn1)C(=O)N[C@@H](CCSC)C(=O)N[C@@H](C)C(=O)N[C@@H](CCCCN)C(=O)N[C@@H](CCCCN)C(=O)N[C@@H](CC(C)C)C(=O)N[C@@H](CC(C)C)C(N)=O)[C@@H](C)CC | human erythrocytes | – | added: Zn(II) 300 µM | baseline: without metal | haemolytic potency ratio | 8 fold
CC12OOC(C)(OO1)C2CCC(=O)NCCNc1ccnc2cc(Cl)ccc12 (centres unmarked) | MOLT-4 | cell growth or viability, resazurin | 10 µM, 48 h | – | inhibition | 33.6%
O=C1C=CC(=O)c2c(O)ccc(O)c21 | HuCC-A1 | cytotoxicity, MTT | – | baseline: IC50 MRC5 over IC50 HuCC-A1 | selectivity ratio | 4.14
